Experimental data gathered from unrelated publications.
Parts stem from different laboratories: compare values within a part only. Substitutions count along the parent as printed.

Sample 1
Target: Histone acetyltransferase KAT6A, both winged helices, GST fusion (KAT6A, Homo sapiens, UniProt Q92794, residues 1-181)
Technique: protein binding microarray
Form: double-stranded DNA, one strand shown
Matrix: in vitro
Tested at: not given
Setting: 8-mer, flanks averaged, mean of 2 arrays, mostly near background
Relative to: not given
Reading: higher = stronger binding
Residues (chain): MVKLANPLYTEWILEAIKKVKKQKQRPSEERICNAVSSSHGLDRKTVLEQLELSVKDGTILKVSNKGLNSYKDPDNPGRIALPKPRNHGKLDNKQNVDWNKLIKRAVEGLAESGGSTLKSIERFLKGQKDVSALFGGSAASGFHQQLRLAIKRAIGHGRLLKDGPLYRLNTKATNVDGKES
Oligonucleotide	E-score
ACGAATAA	-0.0329
GACCACCC	-0.158
GAGAAACC	-0.0467
AACACGCG	0.267
CTCCTCAG	-0.195
GTTGATTA	-0.00889
GGTCATCA	0.073
CGATAGCA	0.0123
GGCTGCCC	0.0647
ACGCTACT	0.14
GCCCTATA	-0.0932
TAGCTGCA	-0.117
GTACAACA	0.0467
CAACATCC	0.0342
CGTCAAAA	0.154
TTGGCCAA	-0.14
ATGGTTCG	0.15

Sample 2
Target: CCNB1, cyclin fold, Cln2 fusion (human)
Technique: yeast growth competition, sequencing
Matrix: yeast
Setting: strong parent motif
Relative to: not given
Reading: higher = stronger binding
Starting sequence: DNAH7 docking peptide (human); HELFQRLDFDNDG; partner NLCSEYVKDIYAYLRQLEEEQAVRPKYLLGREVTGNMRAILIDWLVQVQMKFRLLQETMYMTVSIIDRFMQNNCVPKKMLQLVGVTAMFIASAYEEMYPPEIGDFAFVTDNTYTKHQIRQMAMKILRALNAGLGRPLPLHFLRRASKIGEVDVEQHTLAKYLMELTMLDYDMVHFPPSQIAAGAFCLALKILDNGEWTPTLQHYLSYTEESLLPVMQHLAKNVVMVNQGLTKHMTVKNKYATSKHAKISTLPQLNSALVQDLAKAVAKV
Variant	normalised enrichment score
R6A	1.13
F4A	2.18
Q5A	1.7
N11A	1.91
F9A	0.51
D8A	0.597
L3A	0.476

Sample 3
Target: ABI1, truncated, D143A, DHFR fusion (Arabidopsis thaliana)
Technique: DHFR PCA, deep sequencing
Matrix: yeast
Setting: methotrexate growth selection, single substitutions
Added: (+)-ABA 0 µM
Relative to: wild-type fitted maximum
Reading: higher = stronger binding
Starting sequence: PYL1, truncated, DHFR fusion (Arabidopsis thaliana); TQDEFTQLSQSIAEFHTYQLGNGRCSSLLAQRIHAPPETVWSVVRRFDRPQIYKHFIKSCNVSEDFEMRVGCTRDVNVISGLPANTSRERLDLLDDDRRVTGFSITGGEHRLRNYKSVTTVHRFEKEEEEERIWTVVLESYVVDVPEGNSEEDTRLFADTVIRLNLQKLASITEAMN
Variant	relative binding score [%]
Y53H	8.97
R113L	16.5
F66E	1.37
L29Q	6.4
T135V	-10.7
V118M	10.4
T39M	30.4
R45D	-0.559
T86F	20.7
R155G	-12.7
T154D	-9.46
T106P	-4.59
P146C	12.2
F5P	1.43
S26N	3.66
D144K	-6.58
A158K	-11.7
I52P	-4.28
R46N	-3.35
N114V	0.588
Q10A	42.2

Sample 4
Target: Centromere-binding protein 1, full length, His-tagged (CBF1, Saccharomyces cerevisiae, UniProt P17106, residues 1-351)
Sequence of UniProt P17106 (whole entry, looked up): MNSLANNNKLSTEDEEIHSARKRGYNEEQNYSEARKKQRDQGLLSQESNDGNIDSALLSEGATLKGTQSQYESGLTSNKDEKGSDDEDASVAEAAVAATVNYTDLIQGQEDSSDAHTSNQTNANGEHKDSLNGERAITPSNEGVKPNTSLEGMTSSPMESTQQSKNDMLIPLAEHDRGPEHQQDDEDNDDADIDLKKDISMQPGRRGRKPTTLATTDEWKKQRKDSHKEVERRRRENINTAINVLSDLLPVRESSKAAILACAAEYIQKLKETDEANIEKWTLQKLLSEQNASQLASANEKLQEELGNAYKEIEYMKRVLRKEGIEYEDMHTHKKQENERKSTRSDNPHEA
Technique: competition protein-binding microarray
Form: double-stranded DNA, one strand shown
Matrix: in vitro
Tested at: 2 µM
Setting: whole 60-bp probe, lowest competitor level
Added: Pho4 competitor, 0.05 µM
Reading: higher = stronger binding
Shared flanks, not repeated: … GTCTTGATTCGCTTGACGCTGCTG
Oligonucleotide	fluorescence intensity
AAGCATGGTGCCGTTCACATGTCCACCTACTTGAAG	169 a.u.
CTTCTGTAAATTTGTAGTGTGGGTGGACGCGCCCCG	83.7 a.u.
GTCTTGTCTCATTGCATCGTGGGTGTCCCCACTTCA	90.1 a.u.
AAATTACTAAGTTGTTCAGTGGGTGACGCCGTATGA	65 a.u.
CGGGGTTAAGTTTTTCACGTGCAATGCTTGCAGCAG	986 a.u.
GTTGAAACTGTCAACATCGTGTAGGACATTGGATAA	72.2 a.u.
AGCCGGCAGTTGAATCAGGTGCTTCATCACTGGCAT	157 a.u.
CCGCTCGCCCATTCGCACATGGCTTCTCAAGGATCG	69.5 a.u.
CCCGGTATTAGTTTGCACGTTTTCTTTCCTTTGCTT	308 a.u.
CTGAACCGTCTTCGTCACGCTAGAGTTACTAGAAGA	96.2 a.u.
CTATGATCTTGTATTCATGTGATTGTAAATAATATT	691 a.u.
TTTTGAATCCCGTTACACGTGGAATCTTTTTGAATT	506 a.u.
TAACCCACCTTGGGCCACGTGGAAACCAGGGGCCAG	483 a.u.
TGCGCAACAACTTGGGTAGTGGGTGTATGTCTAGAA	55.8 a.u.
CGGCTACTGAATCTTTACATTACTTGAGCTGAGAAG	74.3 a.u.
CTCCTCCTCCGGCTTCACGTGTGGAATAGGTGTATG	495 a.u.
CGGGGTTAAGTTTGAGTGGTGGGTGGCTTGCAGCAG	71.6 a.u.
CTTGCGATTCCTCTCCTCGTGAGAGGAGATACCGTT	89 a.u.
TAAGTGAGATGGAGTGGCGTGGAACTGCAGGCTGGT	58.9 a.u.
GTCTTGTCTCATTGCTGAGTGGGTGTCCCCACTTCA	84.6 a.u.
CTTTCCCGATCTTGTCACCTTACTTTAGCACATTTG	81.5 a.u.
GTATTAGGTTGTCTGATCATGACGCTGTCCCCTACG	69.2 a.u.
CTTTCCCGATCTTGAGGCGTGGGTGTAGCACATTTG	78.5 a.u.

Sample 5
Target: Microphthalmia-associated transcription factor, full length (MITF, Homo sapiens, UniProt O75030-10, residues 1-413)
Technique: protein-binding microarray
Form: double-stranded DNA, one strand shown
Matrix: in vitro
Tested at: not given
Setting: k-mer, scored over probes, only values ≥0.25
Reading: higher = stronger binding
Residues (chain): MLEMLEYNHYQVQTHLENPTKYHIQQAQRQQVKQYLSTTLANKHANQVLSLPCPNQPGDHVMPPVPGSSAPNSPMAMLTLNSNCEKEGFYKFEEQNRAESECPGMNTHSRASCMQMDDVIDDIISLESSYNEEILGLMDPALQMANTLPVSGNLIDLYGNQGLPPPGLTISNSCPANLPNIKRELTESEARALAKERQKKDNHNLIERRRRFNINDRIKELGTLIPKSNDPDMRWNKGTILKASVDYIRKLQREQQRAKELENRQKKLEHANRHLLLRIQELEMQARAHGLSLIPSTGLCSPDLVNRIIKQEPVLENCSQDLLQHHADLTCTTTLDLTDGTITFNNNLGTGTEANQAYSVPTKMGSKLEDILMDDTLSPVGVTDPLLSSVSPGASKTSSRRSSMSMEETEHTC
Oligonucleotide	E-score
AGTCACA	0.333
ACCCCAT	0.262
GCGTGTA	0.251
ACTCATG	0.266
ACGTCAC	0.277
CCACACG	0.329
CTCGTGA	0.484
CCCACGA	0.258
ATCACGC	0.432
CCCCTCC	0.321
AGTCATG	0.375
ATGATCA	0.269
ACGTGTC	0.39
ATCACGA	0.42

Sample 6
Target: UBE2G1 UBC core domain (UniProt P62253)
Technique: yeast two-hybrid
Matrix: yeast
Setting: mostly zero background
Relative to: not given
Reading: higher = stronger interaction
B1: TRIM69 RING domain (UniProt Q86WT6); chain VIQDITMELHCPLCNDWFRDPLMLSCGHNFCEACIQDFWRLQAKETFCPECKMLCQYNNCTF
B2: TRIM8 RING domain (UniProt Q9BZR9); chain WKNCFEEELICPICLHVFVEPVQLPCKHNFCRGCIGEAWAKDSGLVRCPECNQAYNQKPGLE
B3: RNF170 RING domain (UniProt Q96K19); chain TRQQFYTDMYCPICLHQASFPVETNCGHLFCGACIIAYWRYGSWLGAISCPICRQTVTLLLTVF
B4: IRF2BPL RING domain (UniProt Q9H1B7); chain SPMANSGPLCCTICHERLEDTHFVQCPSVPSHKFCFPCSRESIKAQGATGEVYCPSGEKCPLVGSNVP
B5: TRIM72 RING domain (UniProt Q6ZMU5); chain APGLLHQELSCPLCLQLFDAPVTAECGHSFCRACLGRVAGEPAADGTVLCPCCQAPTRPQALST
Construct (chain): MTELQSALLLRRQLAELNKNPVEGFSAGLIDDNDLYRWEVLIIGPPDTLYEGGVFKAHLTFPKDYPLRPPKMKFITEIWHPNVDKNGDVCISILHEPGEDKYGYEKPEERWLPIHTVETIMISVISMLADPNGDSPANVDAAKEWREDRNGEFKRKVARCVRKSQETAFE
Molecule	lacZ reporter activity
PEELQAMDNVCIICREEMVTGAKRLPCNHIFHTSCLRSWFQRQQTCPTCRMDVLRASLPA (SYVN1 RING domain (UniProt Q86TM6))	0
B1 (TRIM69 RING domain)	0
B2 (TRIM8 RING domain)	0
QHHELTSLFECPVCFDYVLPPILQCQAGHLVCNQCRQKLSCCPTCRGALTPSIRNL (SIAH2 RING domain (UniProt O43255))	0
DAIPSLSECQCGICMEILVEPVTLPCNHTLCKPCFQSTVEKASLCCPFCRRRVSSWTRYH (RNF168 RING domain (UniProt Q8IYW5))	0
B3 (RNF170 RING domain)	0
VTLSLTLPITCHICLGKVRQPVICINNHVFCSICIDLWLKNNSQCPACRVPITPENPCK (OBI1 RING domain (UniProt Q5W0B1))	0
KTLSRFGIQPCSICLGDAKDPVCLPCDHVHCLRCLRAWFASEQMICPYCLTALPDEFSPA (RNF213 RING domain (UniProt Q63HN8))	0
B4 (IRF2BPL RING domain)	0
QLQDIKEQTMCPVCLDRLKNMIFLCGHGTCQLCGDRMSECPICRKAIERRILLY (MIB1 RING domain (UniProt Q86YT6))	0
FPEHFVKSISCQICEHILADPVETNCKHVFCRVCILRCLKVMGSYCPSCRYPCFPTDLES (RAG1 RING domain (UniProt P15918))	0
B5 (TRIM72 RING domain)	0

Sample 7
Target: CREB3, bZIP domain (human)
Technique: DHFR protein complementation
Matrix: yeast
Setting: single substitutions, most at no-binding floor
Relative to: wild-type JUN-FOS pair
Reading: higher = stronger binding
Starting sequence: JUN, bZIP domain (human); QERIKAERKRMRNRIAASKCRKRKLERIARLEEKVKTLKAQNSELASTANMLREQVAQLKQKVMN; partner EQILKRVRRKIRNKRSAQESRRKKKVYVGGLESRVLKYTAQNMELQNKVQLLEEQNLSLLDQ
Variant	binding fitness
T37A	-1.48 natural log
Q55L	-1.3 natural log
L59G	-1.38 natural log
E33C	-1.41 natural log
L52P	-1.52 natural log
V35C	-1.44 natural log
K39Q	-1.54 natural log
S43P	-1.51 natural log
L52V	-1.54 natural log
T37Y	-1.39 natural log
L52M	-1.48 natural log

Some of these lines once more (sample 4):
Oligonucleotide	fluorescence intensity
CCCGGTATTAGTTTGCACGTTTTCTTTCCTTTGCTT	308 a.u.
CTTCTGTAAATTTGTAGTGTGGGTGGACGCGCCCCG	83.7 a.u.
CTTTCCCGATCTTGAGGCGTGGGTGTAGCACATTTG	78.5 a.u.
CTTTCCCGATCTTGTCACCTTACTTTAGCACATTTG	81.5 a.u.
CGGCTACTGAATCTTTACATTACTTGAGCTGAGAAG	74.3 a.u.
TTTTGAATCCCGTTACACGTGGAATCTTTTTGAATT	506 a.u.
CCGCTCGCCCATTCGCACATGGCTTCTCAAGGATCG	69.5 a.u.
GTTGAAACTGTCAACATCGTGTAGGACATTGGATAA	72.2 a.u.
AAGCATGGTGCCGTTCACATGTCCACCTACTTGAAG	169 a.u.
CTTGCGATTCCTCTCCTCGTGAGAGGAGATACCGTT	89 a.u.
